Measured values of several laboratories.
Each numbered part is a random draw from the data of one study; scales do not carry over between parts.

Study 1
Target: PABPC1L2, full length, GST fusion (mouse, UniProt A0ABA7IW68)
Method: RNAcompete
Form: RNA
Sample: in vitro
Tested at: 20 nM
Setting: 7-mer, probes averaged, single round
Relative to: mean of 7-mers
Direction: higher = stronger binding
Quantity: 7-mer Z-score
Target sequence (chain): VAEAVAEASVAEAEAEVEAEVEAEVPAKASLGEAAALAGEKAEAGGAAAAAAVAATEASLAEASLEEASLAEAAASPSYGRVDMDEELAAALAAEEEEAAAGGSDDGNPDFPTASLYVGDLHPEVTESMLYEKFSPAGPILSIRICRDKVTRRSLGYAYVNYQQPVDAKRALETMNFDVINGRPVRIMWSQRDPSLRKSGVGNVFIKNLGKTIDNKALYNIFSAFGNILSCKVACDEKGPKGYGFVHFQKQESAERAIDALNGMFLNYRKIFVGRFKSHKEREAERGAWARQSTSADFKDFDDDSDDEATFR
GUCUUAC: -0.385
AGAAUAA: 0.383
GGGCUGU: 0.135
AUUUCCC: -0.389
UGAUGGA: -0.079
ACGUCAG: -0.168
CCCUCGC: -0.394
GUUGAAC: -0.208
UGUGCUG: -0.135
CGGUCUC: -0.304
AUGGUGG: 0.128
CCAGUGU: -0.141
CAAUCUU: -0.148
CGCUGAC: -0.202
CGAAUUA: -0.124
CAGCUUG: -0.115
GUCAGCU: -0.206
CACUGUC: -0.226
GGCCCGC: -0.18
UCGUUUU: -0.574
CUACCGG: -0.26
AGUGUCG: -0.00289

Study 2
Target: RNA binding protein fox-1 homolog 2, RRM domain, GST-SBP tag (RBFOX2, Homo sapiens, UniProt O43251-10, residues 100-194)
Method: RNA Bind-n-Seq
Form: RNA
Sample: in vitro
Tested at: 365 nM
Setting: natural RNA segment, single round, ends assumed
Relative to: no-protein control
Direction: higher = stronger binding
Quantity: RBNS enrichment (R)
Construct (chain): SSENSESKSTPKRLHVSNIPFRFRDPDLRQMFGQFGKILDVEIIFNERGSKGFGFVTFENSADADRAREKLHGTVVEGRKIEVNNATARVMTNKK
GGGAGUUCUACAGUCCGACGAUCAGGAUUGAUUCUGAGAUGACACUGUGUGCUGGCAAGGAGCAUUGGGGGGCACAGUUGUUGUUUGGUAUCCAGGCAGUUGAGCUGAGGCAUUCAUAGGAUGUCUUAGAAGAUGGAAUUCUCGGGUGCCAA: 0.556
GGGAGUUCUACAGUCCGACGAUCAGGCAAAAAGUGUGUUGCCGAGGCCUCUUGGCUCUUGAGUAGCAGAGCUGAGACUGGUUCCCUGAUGCUCCGUCAGCUUCCCUAUGUGGCUGGCUCAUUAUUUUCCUCAAUGGAAUUCUCGGGUGCCAA: 0.308
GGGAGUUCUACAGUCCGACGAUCUUAAUAAGUGAGUGCCAUAAGAAAGUCAAUAUAUAUUGUUUAAAAGAUAUUUCAGUCUAGGAAAGAUUUUCCUUCUCUUGGAAUGUGAAGAUCUGUCGAUUCAUCUCCAAUGGAAUUCUCGGGUGCCAA: 0.527
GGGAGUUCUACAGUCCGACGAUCUGAAGCCCGUGCUCCCUGGAAGCCCUCACCUUCCACAGACAACAGAGAUUUCCUGCUAGAGGAAAGGGGGAAUCUCUGUGCAUCCCAGCGCUGCCUGGAAACUUACCUUCUGGAAUUCUCGGGUGCCAA: 1.32
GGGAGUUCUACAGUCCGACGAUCUCUUCUCUACUGCCCCAACUAUUGUGUGGCCUCUUGUGCUGAAAUCUCUGGCUUCAGAGCCUGAAACAAAGAGAAACAGGAUCUGUCUCUACCCAGCACAGCAAAUGGUUUGGAAUUCUCGGGUGCCAA: 0.392
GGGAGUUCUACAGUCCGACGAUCGGCCUGGACCCCACACGUUCAUAGUCUGUCCAGACACUGGGUGGCGGUCCUAAUGCACAGUGACCAAUAUCCACAUAACCUCAUUUGCCUUCCAGAUGUUCAGAUAGUCAUGGAAUUCUCGGGUGCCAA: 0.812
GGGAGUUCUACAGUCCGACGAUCAGACGCUGGCCUUCAGACCUGAUCAGACUCCCAGGGGCAGCCACCACAUGUAUGACAGAGAACAGAGGAUGCCUGUUUUUGCCCCAAAGCUGGAAAUUCAUCACAACCUGUGGAAUUCUCGGGUGCCAA: 0.579
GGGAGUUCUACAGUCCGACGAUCAGAACUGGGGGGCUGCGCCCGCUCCCUCCUUAAUCCUAGAUGAUUUGCUCAUGAAAUAGAGGUGGGGGACGACCGCAUGCACUCUGGGAGGUGCAGCCCUAAGGGGUGGAUGGAAUUCUCGGGUGCCAA: 1.95
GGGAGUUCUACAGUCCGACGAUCGAUUCCUCUGGCCAAGAGUACAGCUUGUGAACUCACCCAAGUGCAUGAGAGUUUUUCUAAAUCUACAUGAAAAACAAAUUUUCCUGGGUUUCAGUACAUUGGCUUUUACAUGGAAUUCUCGGGUGCCAA: 8
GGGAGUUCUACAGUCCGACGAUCGUGGUUGGAGGGCUGGUUCAGGUGCCCUGGAGGGAAGGGGAAGCCUGUGGCCCUGAUUUGUUCAGAGCCCAUUCUCCCUUGCCUCCCCUUUUGAGACUGGAGCCAACCCUUGGAAUUCUCGGGUGCCAA: 0.35
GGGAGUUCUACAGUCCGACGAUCUCUUUGAAAUAGUUUGUGUGAAGGUGAAAGUGCAGUUCAGUAAUAAAUGGUGUCUGUGACUCUGUGACCACAGCCUUGGCUCUGCGCCGCAUGAGUAAGGGGGAAACUGCUGGAAUUCUCGGGUGCCAA: 1.47
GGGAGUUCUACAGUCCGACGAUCAUGUGUGGUGGACUGCAGAGCUGCUUCCACUUACAGGAGAGCUGAUAAUUUGUUAGCUGGAACCUAUUCACUUCCGAGAUUCAGACAUAGCCAUGCUGGUGGCCUUCUGAUGGAAUUCUCGGGUGCCAA: 0.391

Study 3
Target: Sal-like protein 4, full length isoform B (SALL4, Homo sapiens, UniProt Q9UJQ4-2, residues 1-616)
Method: universal PBM
Form: double-stranded DNA, one strand shown
Sample: in vitro
Tested at: not given
Setting: 8-mer, flanks averaged, mean of replicates
Direction: higher = stronger binding
Quantity: E-score
AACTATCA: 0.224
CACCAACG: -0.165
ATAGGGAA: -0.0505
CTTATGAC: 0.19
CAACTGGA: -0.291
ATGGAACA: 0.0398
CAACAAGA: 0.0848
CGGCTCTC: -0.241
ATGCATCA: 0.281
TACTAGTA: 0.212
AGATAGGC: -0.0597
CCTGTTAG: -0.0492
GACTAGGA: -0.0273
AGAAAAGC: -0.0367
CAAAGGAA: 0.134
ACAAACGG: -0.02

Study 4
Target: RING finger protein unkempt homolog, zinc fingers 1-6, GST-SBP tag (UNK, Homo sapiens, UniProt Q9C0B0, residues 30-357)
Chain of UniProt Q9C0B0 (30-357, looked up): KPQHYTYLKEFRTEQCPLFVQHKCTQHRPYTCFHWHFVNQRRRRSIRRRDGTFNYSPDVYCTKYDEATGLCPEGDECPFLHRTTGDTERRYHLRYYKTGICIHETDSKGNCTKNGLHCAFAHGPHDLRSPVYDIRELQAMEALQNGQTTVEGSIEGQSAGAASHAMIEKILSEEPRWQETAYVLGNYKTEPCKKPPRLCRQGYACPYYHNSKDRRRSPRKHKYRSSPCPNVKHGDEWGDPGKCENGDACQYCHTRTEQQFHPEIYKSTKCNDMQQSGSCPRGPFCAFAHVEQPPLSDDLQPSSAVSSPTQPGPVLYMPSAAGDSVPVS
Method: RNA Bind-n-Seq
Form: RNA
Sample: in vitro
Tested at: not given
Setting: RNA with constant flanks, human and mouse sites, ends assumed
Relative to: input RNA pool
Direction: higher = stronger binding
Quantity: bound/input enrichment
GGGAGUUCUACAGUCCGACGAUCCCUAGGCUAAAUGAGAAUGAAAGCGACUUCAGGUCAGGUGGCUGUGGGAUUUUUUUUUUUUGGUCCUUCUUUCCUCUUAACGUAAAUCCACCACCAAAAUUAUUAAUCCUCUUGAGAGAACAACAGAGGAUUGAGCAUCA: 0.729 ratio
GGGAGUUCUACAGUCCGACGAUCUCCAGUCUUACACUUAUGGUUGGCCUCAAAUCUAUUGCAUUUAUGAUAAUGUAUUAUAUCUAGUUGAGUUUAAUAUUUUUUUAUUAGCCUGUAAAUAAAGAUGGCAUCUUCUACAUUAAACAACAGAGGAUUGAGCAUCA: 12.2 ratio
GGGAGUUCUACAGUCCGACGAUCUUUUUCCUGCCCAAAGGAGCCUACAUUUAUAAUACACUAAUGGAAUUUAUCAGGAGUGAAUAUAGGAAAAGAGGGUUCCAGGAGGUCGUCACUCCCAACAUCUUCAAUAGCCGGCUCUGGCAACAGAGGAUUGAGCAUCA: 0.54 ratio
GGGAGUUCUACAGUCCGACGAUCCCCAUGCCGAGGCUCACCUUCCAGGCGGGGGACCCCUACUACAUCAGCAAGCGCAAGCGGGACGAGUGGCUGGCACGCUGGAAAAGGGAGGCUGAGAAGAAAGCCAAGGUCAUUGCAGGACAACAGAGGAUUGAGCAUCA: 0.161 ratio
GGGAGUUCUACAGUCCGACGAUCUUAAUUUAUAUGAAGUUUGAUUUUUUAAAAAAUACCUGAAUUAUUAUUGCCUGCCCUGGCUAGUUUUAUAUCAACUUGAUACAAGCUAGAGUCAUUUGGGGAGAGGGACUCUGAAUUGAGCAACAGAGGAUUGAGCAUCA: 1.01 ratio
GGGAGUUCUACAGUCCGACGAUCACAAUGAAACUAGUCUGGAAAAAAAAACUUGCUUUUUGUUGUAGUUACCACUUAACCCUGUAGUUUAACAAGGAAUGUCUGUGCCAAUAAACCAAUUCUCCCUCUGCUUGACAUUGGCAGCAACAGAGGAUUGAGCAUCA: 0.841 ratio
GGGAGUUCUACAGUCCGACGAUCACCCAGGCUGACGAGGACCCUCAGAUGUCCAUGGUUGAAGACUGUCAUGCGUCAGAACAUAAUAGCCCUAUCUCCUCCGUUCAGUCUCACCCCAGCCAGUCAGUCCGUUCGGUCAGCAGUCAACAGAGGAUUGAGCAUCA: 0.133 ratio
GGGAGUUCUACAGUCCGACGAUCCUGCUGUCCAAGAUCGAUGGCGUUGAGCAGCUGAACAACAUCCUCGUUAUCGGAAUGACCAAUAGACCAGAUUUGAUAGACGAAGCUCUCCUUCGACCCGGAAGACUGGAAGUUAAAAUGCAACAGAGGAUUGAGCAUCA: 2.24 ratio
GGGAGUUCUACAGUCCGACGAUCGAGUGGCAUAAAGUUUUUGAUCUUCCUGAGUCGCUGGGUGGCAUUCGGGCUUGCACUCUCACAGUUUUUCCACCUGAAGAAAACCCUGGGUCACCUUCUAGAGAAUCACCUCUUUCAGCACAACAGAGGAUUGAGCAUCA: 0.247 ratio
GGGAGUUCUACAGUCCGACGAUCUUGACAUUACAGCCAAGAUGGUGCUGUCCCAGAGACAACGAGAUGAACUAAAUCGAGCUAUAGCAGAUUAUCUUCGUUCAAAUGGCUAUGAAGAGGCAUAUUCAGUUUUUAAAAAGGAAGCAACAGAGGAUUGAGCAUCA: 0.279 ratio
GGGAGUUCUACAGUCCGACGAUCCCAUUCUCUUAGUGAUGGGUUGGAUGAAGUCCAAAAAGCAGAAAUGAAAGCCUACAUGGAAUUAGUCAACAAUAUGCUGCUGACUGCAGAGGUAUAAGAGGAUAAGGCUUGAGAUCAGACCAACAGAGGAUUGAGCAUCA: 0.287 ratio

Study 5
Target: Histone acetyltransferase KAT6A, both winged helices, GST fusion (KAT6A, Homo sapiens, UniProt Q92794, residues 1-181)
Method: protein binding microarray
Form: double-stranded DNA, one strand shown
Sample: in vitro
Tested at: not given
Setting: 8-mer, flanks averaged, mean of 2 arrays, mostly near background
Relative to: not given
Direction: higher = stronger binding
Quantity: E-score
Target sequence (chain): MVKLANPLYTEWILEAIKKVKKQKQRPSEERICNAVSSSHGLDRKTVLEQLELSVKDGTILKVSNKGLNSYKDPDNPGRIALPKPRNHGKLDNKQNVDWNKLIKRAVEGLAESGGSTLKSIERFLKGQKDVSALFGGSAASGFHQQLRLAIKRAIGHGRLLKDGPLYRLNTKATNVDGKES
ACCACAGC: -0.0151
ACTTAAGG: -0.121
CCCCCCAG: -0.37
CGGTTCTA: 0.125
AGATGATA: -0.0397
GGCTGGCA: -0.0771
GTTGCGCA: 0.158
ATGGGAAC: -0.0923
GCTACAAC: 0.00566
ACCTCCAA: -0.212
GGAGAGCC: 0.0775
ATTAGGCG: 0.101
CGCTCCTC: 0.0424
AGCTCTTC: -0.0622
GGACACGA: 0.137
GAGACAAA: -0.187
GCAGCGCA: 0.25
CATGTCGC: 0.201
ATAGGCCC: -0.055
GATCGAGC: 0.0673
AAAGTAAC: -0.133
ACCTTGGG: -0.136
AGCGCACT: 0.106
ACACAGAC: -0.116
CGGTTAAA: 0.0133

Repeated from above (study 1):
CGGUCUC: -0.304
CUACCGG: -0.26
CCAGUGU: -0.141
CCCUCGC: -0.394
GUCAGCU: -0.206
GUUGAAC: -0.208
UGAUGGA: -0.079
AGUGUCG: -0.00289
AUUUCCC: -0.389
CAGCUUG: -0.115
